Values quoted from earlier work that unrelated publications cite.
Protocols differ between the studies behind these lines. ± gives the spread as reported.

Structure (SMILES) | target or system | assay | system | setting | scale | measurement | value
c1ccc2c(c1)ccc[n+]2CCCCCCCCCC[n+]1cccc2ccccc21 |  |  | rat, plasma | intramuscular, 5% of LD50 |  | half-life | 54.7 ± 6.2 min
CCOc1ccc2cc(-c3nn(C(C)(C)C)c(N)c3C(N)=O)cnc2c1 |  |  | cattle, plasma | dose not given, maximum level achieved |  | plasma concentration | ≤ 5 µM
CNCC(=O)N[C@@H](Cc1c[nH]c2ccccc12)C(=O)N[C@H](C(=O)N[C@@H](CC(C)C)C(=O)N[C@@H](CC(N)=O)C(=O)N[C@@H](CO)C(=O)N[C@@H](C)C(=O)NCC(=O)N[C@@H](Cc1ccc(O)cc1)C(=O)N[C@@H](CC(C)C)C(=O)N[C@@H](CC(C)C)C(=O)NCC(=O)N1CCC[C@H]1C(=O)N[C@@H](CCCCN)C(=O)N[C@@H](CCCCN)C(=O)N[C@@H](CCCCN)C(=O)N[C@@H](CCCCN)C(N)=O)[C@@H](C)O |  | diphenyl column HPLC |  | water/acetonitrile gradient with TFA |  | HPLC retention time | 15.1 ± 0.42 min
NCCNCCSc1ccccc1 |  |  | urine | 1 µg/mL, 24 h, room temperature |  | short-term stability | 93.8 ± 2.66 % remaining
C=CC[N+](C)(C)c1ccc(CCC(=O)CCc2ccc([N+](C)(C)CC=C)cc2)cc1 | BJ fibroblasts | cytotoxicity, MTT |  |  |  | IC50 | > 3 mM
CN(C(=O)Cc1ccc(Cl)c(Cl)c1)[C@@H]1CCCC[C@H]1N1CCCC1 |  |  | mouse |  |  | brain to blood ratio | 8.2
NC1=NC2(CCCCC2)N(c2ccc(OCc3cn(CCCCOc4ccc5ccc(=O)oc5c4)nn3)cc2)C(N)=N1 | HepG2 |  |  |  | relative to: CC50 HepG2 over MIC50 | selectivity index | > 4000
CCN(CC)Cc1cc(N)ccc1O |  |  |  |  |  | pKa | ~9
COc1cccc2c(N3CCC(CCP(=O)(O)O)CC3)ncnc12 |  |  | mouse, serum | subcutaneous, 300 mg/kg single dose, 24 h |  | serum concentration | ~100 nM
Cc1cc(C)c2c(N)c(C(=O)NCc3ccc4c(c3)OCO4)sc2n1 |  |  | human liver microsomes | 90 min |  | remaining parent compound | < 10%
c1ccc2c[n+](CCCCCCCC[n+]3ccc4ccccc4c3)ccc2c1 |  |  | mouse | intramuscular, 24 h |  | LD50 | 97.2 mg/kg

For quick reference, copied from above:
Structure (SMILES) | target or system | assay | system | setting | scale | measurement | value
NC1=NC2(CCCCC2)N(c2ccc(OCc3cn(CCCCOc4ccc5ccc(=O)oc5c4)nn3)cc2)C(N)=N1 | HepG2 |  |  |  | relative to: CC50 HepG2 over MIC50 | selectivity index | > 4000
